# Published values from different studies.
# Protocols differ between the studies behind these lines. Values joined by “and” are separate records of one study, mostly repeats; a detail may differ. ± marks the error that the study gave.
SMILES,test,test system,conditions,scale,AUC(0-t)
NC1(C(=O)N[C@@H](CCO)c2ccc(Cl)cc2)CCN(c2nc[nH]c3nccc2-3)CC1,,"human, plasma",dose not given,,2660 ng·h/mL and 1770 ng·h/mL and 2100 ng·h/mL
Cc1cc(C)c(CNC(=O)c2cc(Cl)c3c(c2C)O[C@@](C)([C@H]2CC[C@H](N(C)C)CC2)O3)c(=O)[nH]1,mean,"healthy male humans, plasma","oral, 25 mg, day 11, with: itraconazole",,3270 ng·h/mL
CC(C)=CCC/C(C)=C/CC/C(C)=C/CC[C@@](C)(O)CCC1=C(C)C(=O)C(C)=C(C)C1=O,,"healthy human, plasma","oral, 400 mg, single dose, alone",,3930 ng·h/mL
Cn1cncc1[C@@](N)(c1ccc(Cl)cc1)c1ccc2c(c1)c(-c1cccc(Cl)c1)cc(=O)n2C,,human patients,"oral, 300 mg/m2, first dose, cycle 1, expanded cohort, median",,6820 ng·h/mL
Cl.[2H]C([2H])([2H])CC(=O)c1cnc(NC(=O)C2CC2)cc1Nc1cccc(-c2ncn(C([2H])([2H])[2H])n2)c1OC,geometric mean,human,"oral, 10 mg single dose, fasted, liquid",,794 ng·h/mL
CCn1cc(C(=O)N2CCOCC2)c(=O)c2cc(NC3Cc4ccccc4C3)cnc21,,"humans, fasted, plasma","oral, 300 mg, single dose, suspension",,3730 ng·h/mL
CC(C)c1nc(N(C)S(C)(=O)=O)nc(-c2ccc(F)cc2)c1/C=C/[C@@H](O)C[C@@H](O)CC(=O)O,,"healthy human subjects, plasma","oral, 10 mg, geometric mean, with: none",,33.4 ng·h/mL
Cn1cc(-c2cn3nccc3c(-c3cnn([C@]4(CC#N)C[C@@H](C#N)C4)c3)n2)cn1,,"healthy humans fasted, plasma","30 mg single dose, geometric mean",,639 ng·h/mL
CCCCOc1nc(N)c2c(n1)N(Cc1cccc(CN3CCCC3)c1)CC(=O)N2,,human,"oral, 2 mg, mean",,13.5 ng·h/mL
CC(C)NC(=O)COc1cccc(-c2nc(Nc3ccc4[nH]ncc4c3)c3ccccc3n2)c1,,"human, male, fed, plasma","oral, 200 mg, day 3, geometric mean",,9200 ng·h/mL
CC(=O)O[C@H]1C(=O)[C@@]2(C)[C@H]([C@H](OC(=O)c3ccccc3)[C@]3(O)C[C@H](OC(=O)[C@H](O)[C@@H](NC(=O)c4ccccc4)c4ccccc4)C(C)=C1C3(C)C)[C@]1(OC(C)=O)CO[C@@H]1C[C@@H]2O,noncompartmental analysis,"human cancer patients, plasma","intravenous infusion, 80 mg/m^2, cycle 1 day 1, with: daily oral co-medication",,4140 ng·h/mL
CC(=O)N1CCC(Nc2cc(C(=O)NC[C@H](O)CN3CCc4ccccc4C3)ncn2)CC1,,human,"oral, 400 mg, geometric mean",,6670 ng·h/mL
CCO,,"human, breath","0.5 g/kg, with: placebo",,146 ± 22.2 h·mg/100 mL
CCN(CC)Cc1cc(Nc2ccnc3cc(Cl)ccc23)ccc1O,,"human, both sexes, plasma","oral, dose not given, fixed-dose combination",,105 ng·h/mL
CC[C@H](C)[C@@H]([C@@H](CC(=O)N1CCC[C@H]1[C@H](OC)[C@@H](C)C(=O)N[C@@H](Cc1ccccc1)C(=O)NCCCO)OC)N(C)C(=O)[C@@H](NC(=O)[C@H](C(C)C)N(C)C)C(C)C,,"human patients, plasma","intravenous, 20 mg/m², cycle 1 geometric mean",,849 ng·h/mL
COc1cc(-c2cnc3cc(OCCN4CCOCC4)ccn23)cc2c1C(=O)N(CC(F)(F)F)CC2,LC-MS,"human, plasma","oral, 350 mg, -2 h on day 9, with: sulfasalazine 1000 mg",,4370 ng·h/mL
C#C[C@]1(CO)O[C@@H](n2cnc3c(N)nc(F)nc32)C[C@@H]1O,,"human, plasma","oral, 400 mg, single dose, geometric mean",,44.7 µM·h
COc1ccc([C@@H](O)c2cc(-c3ncnc4cc(N5CCOCC5)ccc34)c(F)cc2Cl)nn1,,"healthy human volunteers, plasma","oral, 100 mg single dose, tablet, fasted, geometric mean",,1020 ng·h/mL
Cc1cc(-c2nnc(N)nc2-c2ccc(F)cc2)cc(Cl)n1,,"human patients, plasma","oral, 75 mg capsule once daily, multiple doses, arithmetic mean",,5670 ng·h/mL
C[C@H]1CN(C(=O)CC#N)[C@]12CCN(c1ncnc3[nH]ccc13)C2,,"healthy human, plasma","oral, 3 mg single, median",,51 ng·h/mL
CCN1CCN(Cc2ccc(Nc3ncc(F)c(-c4cc(F)c5nc6n(c5c4)[C@H](C)CCC6)n3)nc2)CC1,,"human, plasma","200 mg single dose, mean",,6340 ng·h/mL
COC(=O)N[C@@H](C)CNc1nccc(-c2cn(C(C)C)nc2-c2cc(Cl)cc(NS(C)(=O)=O)c2F)n1,,"human patients, plasma","oral, 450 mg twice daily, day 1, single dose, geometric mean, with: binimetinib 45 mg once daily",,24500 ng·h/mL
CN[C@@H](C)C(=O)N[C@H]1CN(S(=O)(=O)c2cccc(S(=O)(=O)N3CC[C@H]4CC[C@@H](C(=O)NC(c5ccccc5)c5ccccc5)N4C(=O)[C@@H](NC(=O)[C@H](C)NC)C3)c2)CC[C@H]2CC[C@@H](C(=O)NC(c3ccccc3)c3ccccc3)N2C1=O,LC-MS/MS,"human, advanced solid tumours, plasma","intravenous, 0.6 mg weekly, day 15",,15.7 ± 4.6 ng·h/mL
NC[C@@]1(CC(=O)O)[C@@H]2CC[C@H]3C[C@@H]2[C@@H]1C3,,"human, normal renal function, plasma","oral, 20 mg single dose, geometric mean",,1730 ng·h/mL
C=CCn1c(=O)c2cnc(Nc3ccc(N4CCN(C)CC4)cc3)nc2n1-c1cccc(C(C)(C)O)n1,,human,"oral, 300 mg once daily, monotherapy lead-in, -5 days",geometric mean,8.68 µM·h
CNC(=O)n1ccc2cc(Oc3ccnc(NC(=O)c4ccc(C5CCN(CCO)CC5)cc4)c3)c(OCCOC)cc21,,"healthy human, plasma","oral, 35 mg, geometric mean, alone",,106 ng·h/mL
CO[C@H]1C[C@@H]2CC[C@@H](C)[C@@](O)(O2)C(=O)C(=O)N2CCCC[C@H]2C(=O)O[C@H]([C@H](C)C[C@@H]2CC[C@@H](OC(=O)NCCOCCOCCOCCOCCOCCOCCOCCOCCC(=O)N3CCc4cc(Cn5nc(-c6ccc7oc(N)nc7c6)c6c(N)ncnc65)ccc4C3)[C@H](OC)C2)C[C@@H](O)[C@H](C)/C=C(\C)[C@@H](O)[C@@H](OC)C(=O)[C@H](C)C[C@H](C)/C=C/C=C/C=C/1C,,"human, plasma","intravenous, 16 mg, cycle 1 day 1, arithmetic mean",,1080 ng·h/mL
C[C@H]1[C@H](OC(=O)CCC(=O)O)O[C@@H]2O[C@@]3(C)CC[C@H]4[C@H](C)CC[C@@H]1[C@@]24OO3,,"human, both sexes, plasma","oral, dose not given, fixed-dose combination",,169 ng·h/mL
CO[C@@H]1[C@H](OC(=O)N2CC(CCN3CCOCC3)C2)CC[C@]2(CO2)[C@H]1[C@@]1(C)O[C@@H]1CC=C(C)C,,"humans, plasma","subcutaneous, 1.8 mg twice weekly, fifth dose",,9.61 ± 6.71 ng·h/mL
CN(CC#N)C(=O)C[C@H](Nc1nc2ccccc2[nH]1)c1cccc(C(F)(F)F)c1,,human,"intravenous infusion, 5 mg/kg, 1 mg/mL formulation",,20600 ± 4300 ng·h/mL
CN1CCC(COc2cnc(-c3cccc(Cn4nc(-c5cccc(C#N)c5)ccc4=O)c3)nc2)CC1,,human,"dose not given, single dose, geometric mean, with: itraconazole 200 mg once daily",,21400 ng·h/mL
CN[C@@H](C)C(=O)N[C@H]1CN(S(=O)(=O)c2cccc(S(=O)(=O)N3CC[C@H]4CC[C@@H](C(=O)NC(c5ccccc5)c5ccccc5)N4C(=O)[C@@H](NC(=O)[C@H](C)NC)C3)c2)CC[C@H]2CC[C@@H](C(=O)NC(c3ccccc3)c3ccccc3)N2C1=O,"LC-MS/MS, noncompartmental","human, plasma","20 mg, cycle 1 day 1",,502 ± 299 ng·h/mL
CNC(=O)c1ccc(-c2cnc3ncc(Cc4ccc5ncccc5c4)n3n2)cc1F,,"human, mild NCI classification, plasma","oral, 200 mg, adjusted geometric mean",,6590 ng·h/mL
CC(C)n1c(Nc2cccnc2)nc2cnc(Nc3ccc(N4CCN(C)CC4)cc3)nc21,,"human, male, plasma","oral, 100 mg, day 11, with: itraconazole 200 mg",,1100 ng·h/mL
O=C(O)CCC(=O)O.[2H]C([2H])([2H])Oc1cc(C)c2[nH]ccc2c1CN1CC[C@@H](C2CC2)C[C@H]1c1ccc(C(=O)O)cc1,"LC-MS/MS, geometric mean","human, plasma","100 mg, single dose, fasting",,56900 ng·h/mL
CO[C@H]1C[C@@H]2CC[C@@H](C)[C@@](O)(O2)C(=O)C(=O)N2CCCC[C@H]2C(=O)O[C@H]([C@H](C)C[C@@H]2CC[C@@H](OCCO)[C@H](OC)C2)CC(=O)[C@H](C)/C=C(\C)[C@@H](O)[C@@H](OC)C(=O)[C@H](C)C[C@H](C)/C=C/C=C/C=C/1C,,"human, plasma","oral, 5 mg, single dosing, with: vorolanib 100 mg",,203 ± 83 ng·h/mL
C=CC(=O)N(C)CCOc1c(N)ncnc1-c1cc(F)cc(NC(=O)c2ccc(C3CC3)cc2F)c1C,,"human, whole blood","oral, 30 mg, single ascending dose",,75.1 ng·h/mL

# Excerpt of the above:
SMILES,test,test system,conditions,scale,AUC(0-t)
CC(=O)N1CCC(Nc2cc(C(=O)NC[C@H](O)CN3CCc4ccccc4C3)ncn2)CC1,,human,"oral, 400 mg, geometric mean",,6670 ng·h/mL
C[C@H]1CN(C(=O)CC#N)[C@]12CCN(c1ncnc3[nH]ccc13)C2,,"healthy human, plasma","oral, 3 mg single, median",,51 ng·h/mL
